Results of several laboratories.
Protocols differ between the studies behind these lines. ± marks the error that the study gave.
Cell line: A2780

SMILES | assay | setting | how to read | endpoint | result
Cc1[nH]c2ccccc2c1CCNCc1ccc(/C=C/C(=O)NO)cc1 | annexin V/PI flow cytometry | concentration not given, 48 h | relative to: control subtracted | early apoptotic cells | 8.4 ± 1.6%
Nc1ccn([C@@H]2O[C@H](CO)[C@@H](O)C2(F)F)c(=O)n1 | cell proliferation, CCK-8 | 4 d | relative to: untreated | ED50 | 0.0005 ± 2e-05 µM
CCn1cc(-c2cc(Cn3ccoc3=N)cc3c2CCN([C@@H](C)c2cc(OC)ccn2)C3=O)c(C(F)(F)F)n1 | cell growth, inhibitor | 120 h | – | EC50 | 0.195 µM
C[C@@H]1CC[C@@H]([C@](O)(CNCc2ccccc2)COCc2ccccc2)[C@H](OCc2ccccc2)C1 | cell growth, inhibitor, MTT | 72 h | – | IC50 | 4.06 µM
COc1cccc2c1C(=O)c1c(O)c3c(c(O)c1C2=O)C[C@@](O)(C(=O)CO)C[C@@H]3O[C@H]1C[C@H](N)[C@H](O)[C@H](C)O1 | WST-1 | concentration not given, 72 h, highest tested concentration | – | maximal cytotoxicity | 93.3%
[Fe+2].c1cc[cH-]c1.c1cc[cH-]c1 | viability, MTT | 96 h | – | IC50 | > 100 µM
COc1ccc(CNC[C@](O)(COCc2ccc(F)cc2)[C@@H]2CC[C@@H](C)C[C@H]2OCc2ccc(F)cc2)cc1 | cell growth, inhibitor, MTT | 72 h | – | IC50 | 1.52 µM
Nc1ccccc1NC(=O)c1ccc(CNC(=O)OCc2cccnc2)cc1 | flow cytometry, measured: subG1 nuclei | concentration not given | – | apoptotic cells | ~60%
COc1ccc(CNC[C@](O)(COCc2ccc(OC)cc2)[C@@H]2CC[C@@H](C)C[C@H]2OCc2ccc(OC)cc2)cc1 | cell growth, inhibitor, MTT | 72 h | – | IC50 | 1.33 µM
COc1cnc2cccc(N3CCc4c(cc(Cn5ccnc5C)cc4-c4cn(C)nc4C(F)(F)F)C3=O)c2c1 | cell growth, inhibitor | 120 h | – | EC50 | 0.34 µM
COc1cccc(CNC[C@@](C)(O)[C@@H]2CC[C@@H](C)C[C@H]2OCc2ccccc2)c1 | cell growth, inhibitor, MTT | 72 h | – | IC50 | 12.5 µM
O=C(/C=C/C=C/C=C/C1CCCCC1)NC1=C[C@@](O)(/C=C/C=C/C=C/C(=O)NC2=C(O)CCC2=O)[C@@H]2O[C@@H]2C1=O | cell growth, CellTiter-Glo | 78 h | – | GI50 | 8.06 µM

Excerpt of the above:
SMILES | assay | setting | how to read | endpoint | result
COc1cccc(CNC[C@@](C)(O)[C@@H]2CC[C@@H](C)C[C@H]2OCc2ccccc2)c1 | cell growth, inhibitor, MTT | 72 h | – | IC50 | 12.5 µM
